Measured values pooled from the literature.
Protocols differ between the studies behind these lines. “And” joins repeats or separate records; there may be more than shown. ± gives the spread as reported.
STK16: Serine/threonine-protein kinase 16 (STK16, Homo sapiens, UniProt O75716)
UniProt O75716, sequence (whole entry, looked up): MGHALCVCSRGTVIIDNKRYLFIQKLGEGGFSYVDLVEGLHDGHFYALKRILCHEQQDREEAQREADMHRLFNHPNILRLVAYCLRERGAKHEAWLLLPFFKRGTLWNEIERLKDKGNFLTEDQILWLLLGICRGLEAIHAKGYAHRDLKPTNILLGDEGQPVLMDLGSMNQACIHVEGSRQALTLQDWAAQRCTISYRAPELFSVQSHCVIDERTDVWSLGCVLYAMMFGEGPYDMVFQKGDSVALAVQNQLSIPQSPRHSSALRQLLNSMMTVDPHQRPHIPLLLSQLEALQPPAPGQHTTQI
ADRA1D: Alpha-1D adrenergic receptor (ADRA1D, Homo sapiens, UniProt P25100)
UniProt P25100, sequence (whole entry, looked up): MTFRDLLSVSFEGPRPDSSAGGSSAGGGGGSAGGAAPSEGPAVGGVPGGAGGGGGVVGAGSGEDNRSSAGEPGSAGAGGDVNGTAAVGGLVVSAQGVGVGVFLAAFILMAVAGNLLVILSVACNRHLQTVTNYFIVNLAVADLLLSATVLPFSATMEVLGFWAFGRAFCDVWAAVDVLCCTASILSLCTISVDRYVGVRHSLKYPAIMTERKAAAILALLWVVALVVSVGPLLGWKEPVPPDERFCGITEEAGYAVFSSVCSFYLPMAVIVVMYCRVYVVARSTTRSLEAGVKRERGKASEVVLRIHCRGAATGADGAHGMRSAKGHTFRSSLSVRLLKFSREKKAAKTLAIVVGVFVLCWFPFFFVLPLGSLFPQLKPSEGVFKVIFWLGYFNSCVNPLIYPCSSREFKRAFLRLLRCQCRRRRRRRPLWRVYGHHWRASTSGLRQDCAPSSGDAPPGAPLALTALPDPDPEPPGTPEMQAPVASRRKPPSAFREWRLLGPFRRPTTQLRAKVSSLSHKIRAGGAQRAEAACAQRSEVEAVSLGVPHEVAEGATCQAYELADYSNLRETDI
USP13 ZnF-UBD domain: Ubiquitin carboxyl-terminal hydrolase 13, ZnF-UBD domain (USP13, Homo sapiens, UniProt Q92995)
UniProt Q92995, sequence (whole entry, looked up): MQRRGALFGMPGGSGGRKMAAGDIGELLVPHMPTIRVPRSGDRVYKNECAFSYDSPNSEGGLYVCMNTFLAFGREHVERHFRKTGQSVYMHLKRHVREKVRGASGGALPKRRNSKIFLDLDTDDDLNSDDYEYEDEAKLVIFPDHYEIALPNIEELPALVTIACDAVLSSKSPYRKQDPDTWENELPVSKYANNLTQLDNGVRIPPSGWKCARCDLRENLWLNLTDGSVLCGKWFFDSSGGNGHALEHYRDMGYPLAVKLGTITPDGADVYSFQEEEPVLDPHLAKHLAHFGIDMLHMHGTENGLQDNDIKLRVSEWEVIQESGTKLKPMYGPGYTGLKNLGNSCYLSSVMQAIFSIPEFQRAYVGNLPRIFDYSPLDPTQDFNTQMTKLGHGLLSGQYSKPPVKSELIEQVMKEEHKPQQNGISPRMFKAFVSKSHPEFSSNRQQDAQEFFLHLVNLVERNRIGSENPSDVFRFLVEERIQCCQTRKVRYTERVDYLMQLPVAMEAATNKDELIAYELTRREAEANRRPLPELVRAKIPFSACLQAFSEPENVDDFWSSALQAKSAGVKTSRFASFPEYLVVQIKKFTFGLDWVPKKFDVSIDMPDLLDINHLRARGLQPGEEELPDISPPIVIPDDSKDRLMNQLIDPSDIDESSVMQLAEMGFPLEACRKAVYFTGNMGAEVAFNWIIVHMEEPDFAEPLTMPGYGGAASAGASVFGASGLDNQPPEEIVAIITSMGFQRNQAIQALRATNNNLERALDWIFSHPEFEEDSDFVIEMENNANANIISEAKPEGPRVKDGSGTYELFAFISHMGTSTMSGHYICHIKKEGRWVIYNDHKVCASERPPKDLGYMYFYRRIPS
rep main protease: Replicase polyprotein 1ab, main protease (rep, Porcine epidemic diarrhea virus, UniProt P0C6Y4)
UniProt P50613, sequence (whole entry, looked up): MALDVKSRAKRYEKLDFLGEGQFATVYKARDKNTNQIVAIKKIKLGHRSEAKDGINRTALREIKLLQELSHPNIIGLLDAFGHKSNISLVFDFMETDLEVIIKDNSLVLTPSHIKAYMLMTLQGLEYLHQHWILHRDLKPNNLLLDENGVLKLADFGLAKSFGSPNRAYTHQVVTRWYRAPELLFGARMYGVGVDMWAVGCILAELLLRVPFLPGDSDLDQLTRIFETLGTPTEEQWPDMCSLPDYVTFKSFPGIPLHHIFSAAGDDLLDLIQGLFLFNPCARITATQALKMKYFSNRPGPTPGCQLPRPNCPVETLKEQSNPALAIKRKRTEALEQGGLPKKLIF
UniProt P51531, sequence (whole entry, looked up): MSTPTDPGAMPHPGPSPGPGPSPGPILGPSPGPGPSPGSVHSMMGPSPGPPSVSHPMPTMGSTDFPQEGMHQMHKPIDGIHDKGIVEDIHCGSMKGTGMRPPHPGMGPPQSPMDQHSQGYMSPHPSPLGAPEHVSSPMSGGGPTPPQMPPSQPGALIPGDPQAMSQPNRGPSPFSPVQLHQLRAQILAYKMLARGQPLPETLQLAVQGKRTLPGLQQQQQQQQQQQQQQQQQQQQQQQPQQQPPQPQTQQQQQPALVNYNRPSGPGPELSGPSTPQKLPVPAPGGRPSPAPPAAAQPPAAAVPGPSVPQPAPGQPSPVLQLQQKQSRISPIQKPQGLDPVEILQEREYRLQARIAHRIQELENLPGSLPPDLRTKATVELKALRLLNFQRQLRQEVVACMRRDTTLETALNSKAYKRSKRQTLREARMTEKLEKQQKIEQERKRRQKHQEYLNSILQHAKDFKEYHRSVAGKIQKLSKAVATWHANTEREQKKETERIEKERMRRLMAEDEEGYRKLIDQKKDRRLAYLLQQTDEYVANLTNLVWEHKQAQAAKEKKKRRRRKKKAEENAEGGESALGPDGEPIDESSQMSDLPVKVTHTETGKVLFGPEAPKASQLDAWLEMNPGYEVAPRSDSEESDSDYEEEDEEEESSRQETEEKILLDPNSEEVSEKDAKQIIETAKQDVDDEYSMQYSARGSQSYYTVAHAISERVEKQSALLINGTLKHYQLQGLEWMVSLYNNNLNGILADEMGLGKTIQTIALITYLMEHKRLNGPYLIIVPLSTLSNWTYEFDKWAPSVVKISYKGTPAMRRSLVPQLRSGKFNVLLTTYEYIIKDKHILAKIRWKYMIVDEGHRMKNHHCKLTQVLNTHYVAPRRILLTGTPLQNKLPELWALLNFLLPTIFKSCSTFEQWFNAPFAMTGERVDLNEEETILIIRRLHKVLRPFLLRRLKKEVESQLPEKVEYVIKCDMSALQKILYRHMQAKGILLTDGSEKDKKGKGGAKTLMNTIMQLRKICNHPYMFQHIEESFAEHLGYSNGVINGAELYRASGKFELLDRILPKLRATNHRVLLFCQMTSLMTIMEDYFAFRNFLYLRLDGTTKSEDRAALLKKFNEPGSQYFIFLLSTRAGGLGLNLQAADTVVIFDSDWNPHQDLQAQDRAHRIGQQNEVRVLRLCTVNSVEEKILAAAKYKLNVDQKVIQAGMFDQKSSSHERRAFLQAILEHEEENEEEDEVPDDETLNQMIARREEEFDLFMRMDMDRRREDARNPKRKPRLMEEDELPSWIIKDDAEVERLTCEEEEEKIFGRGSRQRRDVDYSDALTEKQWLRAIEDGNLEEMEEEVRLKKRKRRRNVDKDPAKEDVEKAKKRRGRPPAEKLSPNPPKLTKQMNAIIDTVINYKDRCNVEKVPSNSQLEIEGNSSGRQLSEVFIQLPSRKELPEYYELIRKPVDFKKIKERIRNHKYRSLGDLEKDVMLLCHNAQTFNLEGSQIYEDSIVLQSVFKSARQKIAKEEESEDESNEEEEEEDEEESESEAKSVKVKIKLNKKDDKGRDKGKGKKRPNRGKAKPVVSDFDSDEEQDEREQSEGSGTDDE
UniProt P54646, sequence (whole entry, looked up): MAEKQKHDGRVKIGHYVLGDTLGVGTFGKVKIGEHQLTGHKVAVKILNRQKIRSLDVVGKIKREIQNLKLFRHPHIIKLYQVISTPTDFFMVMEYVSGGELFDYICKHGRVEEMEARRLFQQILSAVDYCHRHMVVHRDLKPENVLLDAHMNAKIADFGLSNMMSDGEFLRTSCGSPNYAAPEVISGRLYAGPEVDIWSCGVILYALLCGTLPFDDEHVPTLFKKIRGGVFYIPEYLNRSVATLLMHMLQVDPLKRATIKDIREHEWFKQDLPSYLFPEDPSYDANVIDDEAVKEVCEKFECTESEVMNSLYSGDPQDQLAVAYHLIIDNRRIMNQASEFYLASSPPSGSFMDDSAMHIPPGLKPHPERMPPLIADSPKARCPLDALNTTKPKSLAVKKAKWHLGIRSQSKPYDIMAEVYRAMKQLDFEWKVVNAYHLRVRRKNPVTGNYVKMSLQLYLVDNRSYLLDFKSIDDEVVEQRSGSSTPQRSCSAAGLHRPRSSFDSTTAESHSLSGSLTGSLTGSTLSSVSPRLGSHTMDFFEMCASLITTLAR

SMILES	target or system	assay	test system	conditions	how to read	measurement	result
Cn1cc(-c2ccc(-c3cncc(Cl)c3N3CCC4(CCNC4=O)CC3)cc2)cn1	COLO 205	gene expression, microarray, measured: SDC4 mRNA	–	concentration not given, 2 h	relative to: untreated cells	log2 fold change	2.76
COc1ccc(C(=O)Nc2ccc(N3CCC4(CC3)CCN(c3ccccn3)C4)cc2)cc1	Alpha-synuclein, fibrils (SNCA, Homo sapiens, UniProt P37840)	radioligand binding	–	1 µM, 50 nM protein, with: [3H]BF2846 4 nM	–	inhibition	53%
CC[C@@H]1[C@H](F)C(=O)N[C@@H]1COc1nccc2cc(C(N)=O)c(OC)cc12	STK16	ATP-site probe binding, ActivX profiling	THP-1 cell lysate	0.01 mM, Lys1 site	–	inhibition	10.7%
Ic1cccc2cnccc12	imidazoline I2 receptor, central (rat)	radioligand binding, inhibitor	–	10 µM	–	inhibition	5%
OCCCN1CC[C@@H]2C[C@H]1c1cc(-c3ccc(C(F)(F)F)cc3)ccc12	ADRA1D	radioligand binding, PDSP competition binding	–	10 µM	–	inhibition	< 50%
CN(C)C1CCN(CC#Cc2nn(C3CCCC3)c3nc(NCc4ccccc4)ncc23)C1 (centres unmarked)	Cyclin-dependent kinase 7, with cyclin H, MAT1 (CDK7, Homo sapiens, UniProt P50613)	enzyme activity, inhibitor, Z'-LYTE	–	10000 nM	–	inhibition	6%
O=C(O)CCC(=O)N1CCc2ccccc21	USP13 ZnF-UBD domain	–	–	–	–	Kd	294 µM
COc1cc(CNC(=O)c2cccc3ccccc23)cc(Br)c1OC	rep main protease	enzyme activity, inhibitor, FRET	–	10 µM	–	inhibition	< 0%
O=C(O)CCC1=Nc2cccc3cccc(c23)N1	USP13 ZnF-UBD domain	–	–	–	–	Kd	> 1000 µM
COc1cc2ncnc(Nc3ccc(Oc4ccccc4)c(C)c3C)c2cc1OC	5'-AMP-activated protein kinase catalytic subunit alpha-2, with beta1 gamma1 (PRKAA2, Homo sapiens, UniProt P54646)	kinase activity, inhibitor	–	1 µM	–	inhibition	9%
NC/C(=C\F)COc1cccc(Cn2c(=S)[nH]c(=O)c3[nH]cnc32)c1	rat central imidazoline I2 receptor	radioligand binding	–	10 µM	–	inhibition	< 50%
O=C(NO)c1ccc(CN2CCCCc3ccccc32)c(F)c1	ADRA1D	radioligand binding, radioligand displacement	–	10 µM, mean of replicates	–	inhibition	1.31%
CCN1CCN(Cc2ccc(NC(=O)c3ccc(C)c(Oc4ccnc5[nH]ccc45)c3)cc2C(F)(F)F)CC1	SMG1 (Homo sapiens, UniProt Q96Q15)	–	A-375	concentration not given	–	inhibition	-23.4%
OO	Histone acetyltransferase p300, BHC core (EP300, Homo sapiens, UniProt Q09472)	enzyme activity, inhibitor	–	250 µM, p300, no DTT, with: [3H]acetyl-CoA	–	inhibition	35 ± 10%
Cc1cc(-c2ccnc3[nH]cc(F)c23)cc(F)c1[C@@]1(O)[C@H](C)CN(C(=O)CN)C[C@@H]1C	STK16	ATP probe binding, KiNativ, measured: Lys2 site	HEK293T cell lysate	10 µM	–	inhibition	90.8%
Cn1cc(-c2cnc3ccc(NC(=O)Nc4ccc(F)c(Br)c4)cc3n2)cn1	MAP3K5 (Homo sapiens, UniProt Q99683)	kinase binding, KiNativ profiling, measured: Lys2 peptide	PANC-1 lysate	7.5 µM	–	inhibition	6.5%
COc1cc(CNC(=O)c2cccc(C#N)c2)cc(Br)c1OC	rep main protease	enzyme activity, FRET	–	concentration not given	–	inhibition	inactive
COc1cc(C(=O)NS(=O)(=O)c2ccccc2C)ccc1Cc1cn(C)c2ccc(NC(=O)OC3CCCC3)cc12	Volume-regulated anion channel subunit LRRC8C, part LRRC8A IL1 chimera (LRRC8C, Homo sapiens, UniProt Q8TDW0, C43G)	ion current, inhibitor, whole-cell patch clamp	HCT LRRC8-/- cells	30 µM, +100 mV	–	inhibition	96.7% and 98% and 99.4% and 98.2% and 96.6%
COc1cc(-c2cc(C(C)=O)n3ccccc23)c(OC)cc1Cn1ccnc1	SMARCA2 (Homo sapiens, UniProt P51531)	–	–	1 µM	–	inhibition	-8.81%
Cc1cc2c(cc1N1C(=O)c3cccc4c(CCCO)ccc(c34)C1=O)n(C)c(=O)n2C (racemic)	Bromodomain and WD repeat-containing protein 1, bromodomain 2 (BRWD1, Homo sapiens, UniProt Q9NSI6)	binding, BROMOscan binding	–	100 nM	–	inhibition	61%
COc1cc(CNC(=O)N2CCCC2)cc(Br)c1OC	rep main protease	enzyme activity, inhibitor, FRET	–	10 µM	–	inhibition	< 0%
Cc1ccc(C(=O)Nc2ccc(S(=O)(=O)O)c3cc(S(=O)(=O)O)cc(S(=O)(=O)O)c23)cc1NC(=O)c1cccc(NC(=O)Nc2cccc(C(=O)Nc3cc(C(=O)Nc4ccc(S(=O)(=O)O)c5cc(S(=O)(=O)O)cc(S(=O)(=O)O)c45)ccc3C)c2)c1	Cullin-1, C-terminal domain with ROC1 (Homo sapiens, UniProt Q13616)	FRET	–	5 µM	–	inhibition	100%
COc1ccc(C(=O)NCc2cc(Br)c(OC)c(OC)c2)cc1OC	rep main protease	enzyme activity, inhibitor, FRET	–	10 µM	–	inhibition	< 0%
O=C(Nc1cccc2c(=O)cc(-c3nnn[nH]3)oc12)c1ccc(OCCCCc2ccccc2)cc1	Volume-regulated anion channel subunit LRRC8C, part LRRC8A IL1 chimera (LRRC8C, Homo sapiens, UniProt Q8TDW0, E6A)	ion current, inhibitor, whole-cell patch clamp	HCT116 LRRC8 knockout, transfected	10 µM, at -100 mV	–	inhibition	79.7%
CCCCCCCC(=O)N[C@H](CN1CCCC1)[C@H](O)c1ccc2c(c1)OCCO2	N-terminal Xaa-Pro-Lys N-methyltransferase 1 (Homo sapiens, UniProt Q9BV86)	SAHH-coupled fluorescence	–	100 µM	–	inhibition	no inhibition
COc1ccc(C(=O)NCc2ccc(C)c(C)c2)cc1	Replicase polyprotein 1ab, papain-like protease (rep, Porcine epidemic diarrhea virus, UniProt P0C6Y4)	enzyme activity, inhibitor, FRET	–	10 µM	–	inhibition	< 0%

Repeated from above:
SMILES	target or system	assay	test system	conditions	how to read	measurement	result
O=C(NO)c1ccc(CN2CCCCc3ccccc32)c(F)c1	ADRA1D	radioligand binding, radioligand displacement	–	10 µM, mean of replicates	–	inhibition	1.31%
COc1ccc(C(=O)NCc2cc(Br)c(OC)c(OC)c2)cc1OC	rep main protease	enzyme activity, inhibitor, FRET	–	10 µM	–	inhibition	< 0%
O=C(O)CCC1=Nc2cccc3cccc(c23)N1	USP13 ZnF-UBD domain	–	–	–	–	Kd	> 1000 µM
